{"data": "Results from different studies", "organism": "Salmonella enterica", "note": "Compare with care: the assays were run in different laboratories."}
{"Compound": "CO[C@H]1O[C@H](COC(c2ccccc2)(c2ccccc2)c2ccccc2)[C@@H](OS(=O)(=O)c2ccccc2)[C@H](OS(=O)(=O)c2ccccc2)[C@H]1OS(=O)(=O)c1ccccc1", "observed": "microbial killing", "method": "broth dilution", "strain": "TYPHI", "quantity": "MBC", "value": "8 µg/mL"}
{"Compound": "CC(C)C[C@H](NC(=O)[C@H](CCCNC(=N)N)NC(=O)[C@H](C)NC(=O)[C@H](CC(C)C)NC(=O)[C@H](CCCNC(=N)N)NC(=O)[C@H](C)NC(=O)[C@H](CCCCN)NC(=O)[C@H](CC(C)C)NC(=O)[C@H](CCCNC(=N)N)NC(=O)[C@H](Cc1ccc(O)cc1)NC(=O)[C@H](CC(C)C)NC(=O)[C@H](CCCNC(=N)N)NC(=O)[C@H](C)NC(=O)[C@H](CCCNC(=N)N)NC(=O)[C@H](CC(C)C)NC(=O)[C@H](CCCCN)NC(=O)[C@H](C)NC(=O)[C@H](CC(C)C)NC(=O)[C@H](CCCNC(=N)N)NC(=O)[C@H](C)NC(=O)[C@@H](N)CCCCN)C(N)=O", "method": "broth microdilution", "strain": "ATCC 700720", "time": "24 h", "quantity": "MIC", "value": "3.1 µM"}
{"Compound": "CC1(C)[C@H](NC(=O)/C(=N\\OCc2cc(=O)c(O)cn2O)c2csc(N)n2)C(=O)N1OS(=O)(=O)O", "observed": "microbial growth", "method": "agar dilution", "strain": "TYPHI", "quantity": "MIC", "value": "≤ 0.03 µg/mL"}
{"Compound": "CC(C)C[C@H](NC(=O)[C@H](CCC(=O)O)NC(=O)[C@H](C)NC(=O)[C@H](CC(C)C)NC(=O)[C@H](CCC(=O)O)NC(=O)[C@H](C)NC(=O)[C@H](CCC(N)=O)NC(=O)[C@H](CC(C)C)NC(=O)[C@H](CCC(=O)O)NC(=O)[C@H](Cc1ccc(O)cc1)NC(=O)[C@H](CC(C)C)NC(=O)[C@H](CCC(N)=O)NC(=O)[C@H](C)NC(=O)[C@H](CCC(=O)O)NC(=O)[C@H](CC(C)C)NC(=O)[C@H](CCC(N)=O)NC(=O)[C@H](C)NC(=O)[C@H](CC(C)C)NC(=O)[C@H](CCC(=O)O)NC(=O)[C@H](C)NC(=O)[C@@H](N)CCC(N)=O)C(N)=O", "method": "broth microdilution", "strain": "ATCC 700720", "time": "24 h", "quantity": "MIC", "value": "> 250 µM"}
{"Compound": "COc1cccc(OC)c1C(=O)N[C@@H]1C(=O)N2[C@@H]1SC(C)(C)[C@@H]2C(=O)O", "observed": "microbial growth", "method": "broth dilution", "strain": "CHOLERAESUIS", "quantity": "MIC", "value": "> 128 µM"}
{"Compound": "C#CCNC(=O)C1(O/N=C(\\C(=O)N[C@@H]2C(=O)N(OS(=O)(=O)O)C2(C)C)c2csc(N)n2)CC1", "observed": "microbial growth", "method": "agar dilution", "strain": "TYPHI", "quantity": "MIC", "value": "1 µg/mL"}
{"Compound": "CNC(C)C1CCC(N)C(OC2C(N)CC(N)C(OC3OCC(C)(O)C(NC)C3O)C2O)O1 (stereo not drawn)", "observed": "microbial growth", "method": "broth dilution", "strain": "CHOLERAESUIS", "quantity": "MIC", "value": "< 1 µM"}
{"Compound": "O=C(c1ccccc1O)c1[nH]c(Cl)c(Cl)c1-n1c(C(=O)c2ccccc2O)cc(Cl)c1Cl", "observed": "microbial growth", "strain": "ATCC13311", "quantity": "MIC", "value": "> 64 µM"}
{"Compound": "CC[C@H](C)[C@H](NC(=O)[C@H](CCCCN)NC(=O)[C@H](CCCNC(=N)N)NC(=O)CNC(=O)[C@@H](NC(=O)CN)C(C)C)C(=O)NCC(=O)N[C@@H](Cc1ccccc1)C(=O)N[C@@H](CCCCN)C(=O)N[C@@H](CCCCN)C(=O)N[C@H](C(=O)N[C@@H](CC(C)C)C(=O)N[C@@H](Cc1ccccc1)C(=O)N[C@@H](Cc1ccccc1)C(=O)N[C@@H](Cc1ccccc1)C(=O)N[C@@H](CCCCN)C(=O)N[C@@H](CCCCN)C(=O)NCC(=O)N[C@@H](Cc1ccc(O)cc1)C(=O)N[C@@H](CCC(=O)O)C(=O)N[C@@H](CCCCN)C(=O)N[C@@H](C)C(=O)N[C@@H](CC(N)=O)C(=O)NCC(=O)NCC(=O)N[C@@H](Cc1ccccc1)C(=O)N[C@H](C(=O)N[C@@H](CCCCN)C(=O)N[C@@H](CCCCN)C(=O)N[C@@H](CCCCN)C(=O)NCC(=O)O)C(C)C)C(C)C", "method": "broth microdilution, agar subculture", "strain": "ATCC 15611", "medium": "CaMHB", "quantity": "MBC", "value": "> 1020 µM"}
{"note": "For quick reference, copied from above:"}
{"Compound": "C#CCNC(=O)C1(O/N=C(\\C(=O)N[C@@H]2C(=O)N(OS(=O)(=O)O)C2(C)C)c2csc(N)n2)CC1", "observed": "microbial growth", "method": "agar dilution", "strain": "TYPHI", "quantity": "MIC", "value": "1 µg/mL"}
